Assay results gathered from unrelated publications.
Numbered parts are unrelated; each lists some results of a single study.

Study 1
Target: Sal-like protein 4, full length isoform B (SALL4, Homo sapiens, UniProt Q9UJQ4-2, residues 1-616)
Technique: universal PBM
Form: double-stranded DNA, one strand shown
Medium: in vitro
Tested at: not given
Setting: 8-mer, flanks averaged, mean of replicates
Direction: higher = stronger binding
Construct (chain): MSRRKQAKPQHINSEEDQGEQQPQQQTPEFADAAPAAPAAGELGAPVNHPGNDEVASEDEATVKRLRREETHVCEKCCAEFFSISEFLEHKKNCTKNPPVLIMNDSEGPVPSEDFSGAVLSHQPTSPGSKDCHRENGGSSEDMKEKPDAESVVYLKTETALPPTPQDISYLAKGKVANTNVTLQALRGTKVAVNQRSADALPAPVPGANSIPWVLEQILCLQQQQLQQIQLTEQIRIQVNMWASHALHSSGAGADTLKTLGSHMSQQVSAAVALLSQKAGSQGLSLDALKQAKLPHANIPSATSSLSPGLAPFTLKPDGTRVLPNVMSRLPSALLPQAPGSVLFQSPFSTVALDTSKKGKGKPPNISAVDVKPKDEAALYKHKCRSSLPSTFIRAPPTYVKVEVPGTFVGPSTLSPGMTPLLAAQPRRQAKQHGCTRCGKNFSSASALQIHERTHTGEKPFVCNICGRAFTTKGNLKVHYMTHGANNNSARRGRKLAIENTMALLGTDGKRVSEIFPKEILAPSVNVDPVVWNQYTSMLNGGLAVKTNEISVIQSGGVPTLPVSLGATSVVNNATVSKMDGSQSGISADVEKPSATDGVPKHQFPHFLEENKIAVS
Strand	E-score
AATAGCGA	0.171
CGGCGACC	-0.302
CAATAGTG	0.166
AGCGGAGG	-0.3
CTTTTCAA	0.253
CTGCTAAG	-0.181
GAACAGGA	-0.165
ACGACTGG	-0.205
CGGTCCGC	-0.317
CTGGCTAA	-0.106
GTGCTAAA	0.0619
AAACTCTG	0.171
ATTGTGTC	0.223
CGCCATTC	-0.0568
TCTCGCAA	0.032
TGATCGCA	0.0876
GAAGCGTC	-0.00998
CTGCGACC	-0.181
AGCACAGG	-0.217
GGCAAACA	-0.0873
ACCGCATC	-0.198
TCCTGTCA	0.0093

Study 2
Target: RNA binding protein fox-1 homolog 2, RRM domain, GST-SBP tag (RBFOX2, Homo sapiens, UniProt O43251-10, residues 100-194)
Technique: RNA Bind-n-Seq
Form: RNA
Medium: in vitro
Tested at: 365 nM
Setting: natural RNA segment, single round, ends assumed
Baseline: no-protein control
Direction: higher = stronger binding
Shared flanks, not repeated: GGGAGUUCUACAGUCCGACGAUC … UGGAAUUCUCGGGUGCCAA
Target sequence (chain): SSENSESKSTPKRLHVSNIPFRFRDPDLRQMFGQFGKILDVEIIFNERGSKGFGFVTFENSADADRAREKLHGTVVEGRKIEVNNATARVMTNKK
Strand	RBNS enrichment (R)
AUCACAUGUCUAACUGGCUCACCACAUAGUGUGCUUUGAUUGUAUUUUGGCUUUGACUCUGCCAUUUCUGAAAUGUGGGGGAGGAUGGAGGCAGCUGACCUCUCCAGUUG	0.568
GUGGGCAGCCCUGCUCUCUGGACACCAGUGGGUCCUCAGCCCCCAUGGCAGGGGCUCCUCUGUCUGGCCUGCCUUUUUUUCCUGGUCAGCUGCUCUUAGCGCCGGCUCUG	0.373
AUUAUUGCUUAUUUGAAAACAGUAUUCCCAACUUUUGUAAAGUUGUGUAUGUUUUUGCUUCCCAUGUAACUUCUCCAGUGUUCUGGCAUGAAUUAGAUUUUACUGCUUGU	0.796
UACUUUUAGCUUUAUUCCCUAAAUUUGAUUUCAUAAACAUGCUAAAAUUUGCAAGAGAAUUAACACAUACACAGUUUGCCAAAUCAUAUCAAAUCUUCCCAUUGGAGAUA	0.659
CCUUCACACCGCCACCAACUAACCAAGCUUGGCCUCUGACUCCCGUCUCUGUGCUUGCCCCCAUCUCAGGGACCAUGAUGUCUCAGUCACUCCACGCUCCCCACAGGCCA	0.964
UGCAGAAAAGCUCAGAGUAGGUGGGUAGGAGCCCUUCUCUUUGACUUAGGUUUUUAGGAGUCUGAGCAUCCAUCAAUACCUGUACUAUGAUGGGCUUCUGUUCUCUGCUG	0.237
UUUUUACCUGUAUUGCAUUUUCCCCCUAGAGAAAUAGAUCAAAAGAGCACAAGAGUAUGCGUACAUAGUUUACCAGGUAGUAGAAGUGUGUUAAAAUGUUCCUGUAAAAG	4.37
AAGCAUUAGUUGGAAGAUGCAAAGUUUAUACCUGAUGAUCAGGGCAGUAGGCAUAAUUCAGCAACAAACAAUCUUCCUUUGGGAGAAACCUGUUCAUUCCAAUCUUCUAA	0.549

Study 3
Target: Interferon regulatory factor 5, full length, phosphomimetic (IRF5, Homo sapiens, UniProt Q13568-2, residues 1-514, S451D/S453D/S456D/S462D)
Technique: protein-binding microarray
Form: double-stranded DNA, one strand shown
Medium: in vitro
Tested at: 940 nM top
Setting: 60-bp whole probe
With: salmon DNA 0.4 mg/ml
Baseline: random background probes
Direction: higher = stronger binding
Shared flanks, not repeated: GCCTAGCAC … GTCTTGATTCGCTTGACGCTGCTG
Strand	fitted relative affinity
GACGGTTACGGACTGGGGACGTGCTAG	-0.403 z-score
TTAGGTTCCGGTTTCGTTTAGTGCTAG	7.12 z-score
GACGAACTGGGGACTGGAGTCGTGCTA	-0.054 z-score
TTATATATCGGGTATCGATTAGTGCTA	3 z-score
TTAGGTATCGGTCTGGGTTAGTGCTAG	9.78 z-score
TTAGGTTTACTTTCCCTTTAGTGCTAG	0.728 z-score
GACGGTCTCCGTATCCTGACGTGCTAG	-0.0165 z-score
GACGGTCTGGACACTGGGGACGTGCTA	-0.597 z-score
TTAGGTTTCCTTATTCTTTAGTGCTAG	1.9 z-score
TCAGCTTTATGTGTAGGACTGTGCTAG	0.115 z-score
GACGGTTCCCATTTCCTGACGTGCTAG	0.755 z-score
GACGATTTCGGTACTGGAGACGTGCTA	1.43 z-score
TTAGGACTGGGGTATCGGGTAGTGCTA	0.993 z-score
TTTAAATTCTAATTAGAATTGTGCTAG	-0.297 z-score
GACGGTTTCCTTCTCCGGACGTGCTAG	2.61 z-score
AAGGGTTAAAATTTTGCTTCGTGCTAG	-0.000145 z-score
TCAACCATCCTGTGTCTTACTGTGCTA	0.429 z-score
GAGGATATCGGGTATCGAGACGTGCTA	0.965 z-score
TTAGGTTTCGGTTCCGGTTCGTGCTAG	15.9 z-score

Study 4
Target: Fragile X messenger ribonucleoprotein 1, C-terminal low-complexity region (Fmr1, Mus musculus, UniProt P35922)
Technique: RNA Bind-n-Seq
Form: RNA
Medium: in vitro
Tested at: 200 nM
Setting: whole 134-nt RNA, ends assumed
With: 150 mM LiCl
Baseline: input library
Direction: higher = stronger binding
Library: 7-deaza-guanosine replaces G
Shared flanks, not repeated: GGGAGUUCUACAGUCCGACGAUC … UGGAAUUCUCGGGUGUCAAGG
Strand	log2 enrichment
AAGUCCUGUGCUACACAUCGUAUGUACCGAAUCGGGGAAAGGGGUGGGGUUUGGGGAAAGUAUUAUGUUACGCCGUUCGGAUCUGCACUU	-1.27
UCAAGUCCUGUGCUACACAUCGUAUGUACCGAAUCGGGUUUGGGUUUGGUUUGGAAAGUAUUAUGUUACGCCGUUCGGAUCUGCACUUCC	-0.828
CUGUGCUACACAUCGUAUGUACCGAAUCGGGGAAAAAGGGGUUUUUGGGGUUUUUUUGGGGAAAGUAUUAUGUUACGCCGUUCGGAUCUG	-1.24
UCAAGUCCUGUGCUACACAUCGUAUGUACCGAAUCGGAAAAAAAGGUUUGGAGGAAAGUAUUAUGUUACGCCGUUCGGAUCUGCACUUCC	-1.36
GUCCUGUGCUACACAUCGUAUGUACCGAAUCGGGGAAAAAGGGGUGGGGAAAAAGGGGAAAGUAUUAUGUUACGCCGUUCGGAUCUGCAC	-0.0509
GUCCUGUGCUACACAUCGUAUGUACCGAAUCGGGGUGGGGUUUGGGGAAAAAAAGGGGAAAGUAUUAUGUUACGCCGUUCGGAUCUGCAC	-0.744
CUGUGCUACACAUCGUAUGUACCGAAUCGGGGUUUUUUUGGGGUUUGGGGAAAAAAAGGGGAAAGUAUUAUGUUACGCCGUUCGGAUCUG	-0.823
UCCUGUGCUACACAUCGUAUGUACCGAAUCAAAUUUUUAAACCCCCCCAAACCCCCAAAAAAGUAUUAUGUUACGCCGUUCGGAUCUGCA	1.85

A few entries again (study 1):
Strand	E-score
CTGCGACC	-0.181
CGGCGACC	-0.302
AGCGGAGG	-0.3
TCTCGCAA	0.032
CGGTCCGC	-0.317
CTGCTAAG	-0.181
